Published values collected from several papers.
Parts stem from different laboratories: compare values within a part only. Substitutions count along the parent as printed.

Sample 1
Target: CCNB3, cyclin fold, Cln2 fusion (human)
Technique: yeast growth competition, sequencing
Sample: yeast
Notes: weak parent motif
Baseline: not given
Direction: higher = stronger binding
Endpoint: normalised enrichment score
Parent: PKMYT1 docking peptide (human); SFEPRNLLSLFED
R5L: 0.513
S1T: 0.165
N6C: 0.724
L8E: -2.36
E12Y: 0.607
F2M: 0.634
P4V: 0.483
L10F: 0.431
F11D: 0.248
S9K: 0.396
E12F: 0.511
E12D: 0.672
E3R: -0.405
D13P: 0.431
S9W: 0.863
F11I: 0.307
S1P: 0.414
L7T: 0.297
E3K: 0.648
S9D: 0.286
P4L: 0.421

Sample 2
Target: Histone acetyltransferase KAT6A, winged helix 2, GST fusion (KAT6A, Homo sapiens, UniProt Q92794, residues 85-181)
Technique: protein binding microarray
Molecule type: double-stranded DNA, one strand shown
Sample: in vitro
Concentration: not given
Notes: 8-mer, flanks averaged, mean of 2 arrays, mostly near background
Baseline: not given
Direction: higher = stronger binding
Endpoint: E-score
Residues (chain): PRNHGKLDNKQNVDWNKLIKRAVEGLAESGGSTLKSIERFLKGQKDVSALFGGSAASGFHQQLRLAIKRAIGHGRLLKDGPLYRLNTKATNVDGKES
CATACCGA: -0.063
CTAACGAA: 0.0336
CGGAGTAG: 0.128
ACCAACGC: -0.0752
TCACGAAA: 0.0732
CGCATCCG: 0.0929
ATGGGTAA: 0.0583
GTACATCA: -0.154
AACTCACT: 0.0244
CCTAGTGA: -0.0222
CCGTACAC: -0.133
AAAACACC: -0.00968
CATCGTAG: -0.0916
CCGCCCCA: 0.302
AGCCATAG: 0.012
AGATGACC: -0.0865
ACTGACAC: 0.038
AGCGGGCA: -0.0261
TAACATGA: -0.115
CACTCATG: -0.207
AAACTGGA: -0.0226
CCAGGTTC: -0.0817
ACGGGTTC: -0.102
AATAGGAG: -0.136
CTGGCCTA: -0.00434

Sample 3
Target: Interferon regulatory factor 7, full length, phosphomimetic (IRF7, Homo sapiens, UniProt Q92985, residues 1-503, S471D/S472D/S475D/S476D/S477D/S483D/S484D/S487D)
Technique: protein-binding microarray
Molecule type: double-stranded DNA, one strand shown
Sample: in vitro
Concentration: 2200 nM top
Notes: 60-bp whole probe
Added: salmon DNA 0.4 mg/ml
Baseline: random background probes
Direction: higher = stronger binding
Endpoint: fitted relative affinity
Constant ends, left off below: GCCTAGCAC … GTCTTGATTCGCTTGACGCTGCTG
Construct (chain): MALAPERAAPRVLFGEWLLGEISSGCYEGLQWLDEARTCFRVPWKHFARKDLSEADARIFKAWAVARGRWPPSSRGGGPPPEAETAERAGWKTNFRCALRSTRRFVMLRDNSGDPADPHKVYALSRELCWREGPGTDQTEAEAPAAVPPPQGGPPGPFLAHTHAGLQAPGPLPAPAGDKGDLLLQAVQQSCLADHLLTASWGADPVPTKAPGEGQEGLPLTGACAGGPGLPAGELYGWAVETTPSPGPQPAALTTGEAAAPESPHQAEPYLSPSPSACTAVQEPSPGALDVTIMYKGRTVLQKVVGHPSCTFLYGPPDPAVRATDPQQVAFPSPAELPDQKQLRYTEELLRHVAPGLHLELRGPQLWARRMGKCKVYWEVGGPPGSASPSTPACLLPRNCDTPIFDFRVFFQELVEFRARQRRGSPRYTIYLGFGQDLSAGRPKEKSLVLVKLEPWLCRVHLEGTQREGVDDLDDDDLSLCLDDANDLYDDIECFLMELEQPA
TTAGGACCGGGACTGGGTTAGTGCTAG: -0.9 z-score
AACGGTTTCGACACTGGGGACGTGCTA: 3.09 z-score
TCAACTTTCCAAAGCGTACTGTGCTAG: 1.62 z-score
GATGGTTTCGGGTTTCGGGACGTGCTA: 10 z-score
AAGAGTTTCCCTCCCTGAGTGTGCTAG: 1.08 z-score
GACGATTTCAGTCTCGATACGTGCTAG: 1.24 z-score
TTAGGTATCGACTTGCGGTTAGTGCTA: 1.11 z-score
GACGGACTGCTTCTCATGACGTGCTAG: 0.479 z-score
GCCGGTTCCGGTTTCGGGACGTGCTAG: 6.17 z-score
AAAATGATTTTTTTCATATAGTGCTAG: -0.381 z-score
TGTACTCTCTACATGGGCTTGTGCTAG: 0.746 z-score
TTAGGACTGCTACTGCATTAGTGCTAG: -0.262 z-score
GTAGTTTTCATTATTGTTTCGTGCTAG: 2.83 z-score
TCACACTTGTGTTTGGGACTGTGCTAG: 1.15 z-score
TAAGATCTCAGTTTCGATTAGTGCTAG: 5.57 z-score
TTAGATTTCAGTCTTGATTAGTGCTAG: 0.487 z-score
TTTGATTTCAGTATCGATTAGTGCTAG: 1.47 z-score
GACGGTATCGGGTATCGCGACGTGCTA: 0.111 z-score
TTAGGTTTCCTACTGCATTAGTGCTAG: 1.31 z-score

Sample 4
Target: RING finger protein unkempt homolog, zinc fingers 1-6, GST-SBP tag (UNK, Homo sapiens, UniProt Q9C0B0, residues 30-357)
Sequence of UniProt Q9C0B0 (30-357, looked up): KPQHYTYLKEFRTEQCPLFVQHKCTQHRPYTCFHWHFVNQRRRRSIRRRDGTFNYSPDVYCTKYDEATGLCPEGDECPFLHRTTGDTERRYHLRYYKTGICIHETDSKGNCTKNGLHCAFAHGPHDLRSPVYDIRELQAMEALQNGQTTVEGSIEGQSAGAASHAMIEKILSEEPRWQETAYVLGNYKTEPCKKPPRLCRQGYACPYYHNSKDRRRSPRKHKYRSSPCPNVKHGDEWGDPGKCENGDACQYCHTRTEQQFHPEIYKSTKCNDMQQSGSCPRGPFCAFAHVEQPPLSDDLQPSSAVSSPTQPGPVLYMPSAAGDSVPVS
Technique: RNA Bind-n-Seq
Molecule type: RNA
Sample: in vitro
Concentration: not given
Notes: RNA with constant flanks, human and mouse sites, ends assumed
Baseline: input RNA pool
Direction: higher = stronger binding
Endpoint: bound/input enrichment
Constant ends, left off below: GGGAGUUCUACAGUCCGACGAUC … CAACAGAGGAUUGAGCAUCA
UUGAAAUUGUUCUUUUUAUUUUCAGGGAUACCGUUUAAUUUAAUUAUAUGAUUUGUCUGCACUCAGUUUAUUCCCUACUCAAAUCUCAGCCCCAUGUUGUUCUUUGUUAUUGUCAGAACC: 0.332 ratio
UGUGACUGGUGGAGUGUUGGUGUUAUUCUUUUUGAAAUGUUGGUGGGACAACCUCCUUUCUUGGCACAAACCCCAUUAGAAACACAAAUGAAGGUUAUCAACUGGCAAACUUCUCUUCAC: 0.231 ratio
CAGCUGCCAAAGCUGCCAAAGCCUCAAAUGCUUCUACACCUACCAAGGGGAACACAGAAACUGGUGCCAGUGUCUCACAGACAAACCAUGUGAAGGAAGUCAAAAAACUUAAAACUGAGC: 0.242 ratio
CUCACAGCCUCACGGUUCCCAGCCCCAGCACAGUGGAGGCAGGCGUGGCUGCAUUCCCCUCACGCUACCCUCCCAGCGGCUUGUAGCCGUCACUGGCCAGACCUCCAGGGUGCGGAAUCA: 0.138 ratio
UCACUAGGAAGUAUGAUGCAGUCACCAGGAGGUGUGAUGCAGUCACUAAGAAGUGUAAUGCAGUCAUCAGGAGGUGUGACACAGUCACUAAGAAGUGUGAUGCAGUCACCAGGAGGUGUG: 0.679 ratio
AAGAAGUAAAUCAAUGCUAAAUGAAGAAUCUGUACUUUGUAUGUAUAGAAUUUAUCUAAUAAAUCAUUCAUAGAUCAUUUUAAAGGAUCAUUAUAAAAAUCAUAAACCUAUUUGAGGAAG: 1.45 ratio
GUUUUUUUUUUUUUUUUUUUUUUGCUGCUGACAUUGUAAUUAGCAUAUUCUCAACAGCAAUUAGGAAACAAUGCCUUAUAUAUGUGCUUUGGGGGGUUGAAGGGACAAAGUAGUAGCUGU: 0.962 ratio
CUUGCCCAGCUAUGGCCCCCUCUCAUUCACAAAGUGCCCCCUCCAUGUCCCUGGACCCUUAAGAUAUCCCCUUGGCACCCUGGUCAGAGACUCUGUGUCUGACUCAGGUGGUCCCUGCAG: 0.39 ratio

Excerpt of the above (sample 1):
R5L: 0.513
S9D: 0.286
L7T: 0.297
E12Y: 0.607
E3K: 0.648
P4L: 0.421
F11D: 0.248
L10F: 0.431
S1T: 0.165
